Results gathered from unrelated publications.
Every numbered part comes from another study and shows a few of its results, in no order. Positions count from the first letter of the parent shown.
UniProt Q9XID4, sequence (whole entry, looked up): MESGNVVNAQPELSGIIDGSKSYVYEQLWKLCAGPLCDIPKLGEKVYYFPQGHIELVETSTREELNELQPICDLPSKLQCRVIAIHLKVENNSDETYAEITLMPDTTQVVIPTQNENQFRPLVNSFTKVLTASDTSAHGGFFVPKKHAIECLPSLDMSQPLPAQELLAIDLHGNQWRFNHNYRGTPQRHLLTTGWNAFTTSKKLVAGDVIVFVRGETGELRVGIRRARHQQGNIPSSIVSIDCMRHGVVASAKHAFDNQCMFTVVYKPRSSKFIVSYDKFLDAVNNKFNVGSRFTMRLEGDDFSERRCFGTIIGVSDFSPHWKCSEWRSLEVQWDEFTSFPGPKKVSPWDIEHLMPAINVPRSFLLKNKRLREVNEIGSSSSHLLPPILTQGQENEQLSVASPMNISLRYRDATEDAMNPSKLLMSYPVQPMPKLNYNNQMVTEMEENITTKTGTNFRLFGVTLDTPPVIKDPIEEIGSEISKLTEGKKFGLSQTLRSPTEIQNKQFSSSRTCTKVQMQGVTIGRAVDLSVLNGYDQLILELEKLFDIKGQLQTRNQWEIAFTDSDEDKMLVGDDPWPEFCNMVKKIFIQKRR
UniProt Q9FKM7, sequence (whole entry, looked up): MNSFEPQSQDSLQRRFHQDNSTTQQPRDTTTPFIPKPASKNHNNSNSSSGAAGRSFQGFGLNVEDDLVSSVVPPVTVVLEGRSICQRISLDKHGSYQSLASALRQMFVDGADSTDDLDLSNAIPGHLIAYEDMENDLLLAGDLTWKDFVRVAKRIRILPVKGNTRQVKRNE
UniProt Q9M1R4, sequence (whole entry, looked up): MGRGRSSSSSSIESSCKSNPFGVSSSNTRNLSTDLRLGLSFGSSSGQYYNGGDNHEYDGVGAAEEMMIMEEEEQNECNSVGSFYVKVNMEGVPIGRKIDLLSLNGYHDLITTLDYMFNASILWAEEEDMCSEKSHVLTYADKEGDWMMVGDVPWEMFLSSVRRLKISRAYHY
UniProt Q9C5W9, sequence (whole entry, looked up): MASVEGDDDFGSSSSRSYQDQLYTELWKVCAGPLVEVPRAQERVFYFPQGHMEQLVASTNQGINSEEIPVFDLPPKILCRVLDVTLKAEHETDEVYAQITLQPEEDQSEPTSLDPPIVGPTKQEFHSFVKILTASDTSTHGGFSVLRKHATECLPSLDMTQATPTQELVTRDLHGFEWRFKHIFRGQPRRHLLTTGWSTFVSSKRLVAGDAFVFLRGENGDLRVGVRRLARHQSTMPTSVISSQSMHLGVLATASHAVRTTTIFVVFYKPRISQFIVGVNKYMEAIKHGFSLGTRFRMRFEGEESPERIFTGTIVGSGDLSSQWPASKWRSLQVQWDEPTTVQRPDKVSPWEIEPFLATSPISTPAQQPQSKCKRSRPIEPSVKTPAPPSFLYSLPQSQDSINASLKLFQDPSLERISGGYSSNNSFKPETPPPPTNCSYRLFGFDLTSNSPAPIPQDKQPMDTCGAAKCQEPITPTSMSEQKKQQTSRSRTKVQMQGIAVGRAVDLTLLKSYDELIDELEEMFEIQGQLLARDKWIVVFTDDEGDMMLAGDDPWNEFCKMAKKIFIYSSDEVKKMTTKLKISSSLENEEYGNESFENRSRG
UniProt P93024, sequence (whole entry, looked up): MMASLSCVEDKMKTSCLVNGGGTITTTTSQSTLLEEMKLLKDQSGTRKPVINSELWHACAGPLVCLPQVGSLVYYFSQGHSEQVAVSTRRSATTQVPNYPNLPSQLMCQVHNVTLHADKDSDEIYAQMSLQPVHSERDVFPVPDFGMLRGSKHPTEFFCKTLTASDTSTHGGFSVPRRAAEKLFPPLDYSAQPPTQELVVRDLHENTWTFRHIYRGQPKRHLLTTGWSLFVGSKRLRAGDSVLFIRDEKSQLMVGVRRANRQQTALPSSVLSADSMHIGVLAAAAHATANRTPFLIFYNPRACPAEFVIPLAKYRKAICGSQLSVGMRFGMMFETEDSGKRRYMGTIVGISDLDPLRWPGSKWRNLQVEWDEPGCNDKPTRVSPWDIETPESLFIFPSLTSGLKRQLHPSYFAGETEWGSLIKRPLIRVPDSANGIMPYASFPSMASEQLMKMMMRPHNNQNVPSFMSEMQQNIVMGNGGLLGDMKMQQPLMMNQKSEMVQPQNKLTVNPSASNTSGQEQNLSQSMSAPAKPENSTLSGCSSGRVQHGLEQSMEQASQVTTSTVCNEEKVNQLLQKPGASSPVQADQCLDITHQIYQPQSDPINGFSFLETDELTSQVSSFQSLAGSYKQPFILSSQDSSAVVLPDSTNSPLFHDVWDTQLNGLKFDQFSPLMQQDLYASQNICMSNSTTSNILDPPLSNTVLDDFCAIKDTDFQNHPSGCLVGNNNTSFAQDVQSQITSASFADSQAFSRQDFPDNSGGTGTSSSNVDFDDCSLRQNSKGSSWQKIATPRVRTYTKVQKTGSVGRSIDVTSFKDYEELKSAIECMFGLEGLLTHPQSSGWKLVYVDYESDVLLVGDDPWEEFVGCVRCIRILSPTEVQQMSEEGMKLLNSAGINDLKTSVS

Block 1
Target: JDP2, bZIP domain (human)
Method: DHFR protein complementation
Matrix: yeast
Notes: single substitutions, most at no-binding floor
Relative to: wild-type JUN-FOS pair
Reading: higher = stronger binding
Starting sequence: JUN, bZIP domain (human); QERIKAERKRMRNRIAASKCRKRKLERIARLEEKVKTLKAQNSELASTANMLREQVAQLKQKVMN; partner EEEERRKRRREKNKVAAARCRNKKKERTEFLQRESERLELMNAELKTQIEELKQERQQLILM
With `T48N` the binding fitness was 0.165 natural log.
`L45S` has a binding fitness of -0.126 natural log.
For `L38F`, the binding fitness was 0.0526 natural log.
`N42M` has a binding fitness of 0.176 natural log.
The binding fitness of `E54R` is reported as 0.206 natural log.
`E33H` has a binding fitness of 0.189 natural log.
`Q41L` gave a binding fitness of 0.206 natural log.
The binding fitness of `Q58R` is reported as 0.114 natural log.

Block 2
Target: Interferon regulatory factor 3, full length, phosphomimetic (IRF3, Homo sapiens, UniProt Q14653, residues 1-427, S386D/S396D/S398D/S402D/T404D/S405D)
Method: protein-binding microarray
Form: double-stranded DNA, one strand shown
Matrix: in vitro
Tested at: 2540 nM top
Notes: 60-bp whole probe
Together with: salmon DNA 0.4 mg/ml
Relative to: random background probes
Reading: higher = stronger binding
Constant ends, left off below: GCCTAGCAC … GTCTTGATTCGCTTGACGCTGCTG
Construct (chain): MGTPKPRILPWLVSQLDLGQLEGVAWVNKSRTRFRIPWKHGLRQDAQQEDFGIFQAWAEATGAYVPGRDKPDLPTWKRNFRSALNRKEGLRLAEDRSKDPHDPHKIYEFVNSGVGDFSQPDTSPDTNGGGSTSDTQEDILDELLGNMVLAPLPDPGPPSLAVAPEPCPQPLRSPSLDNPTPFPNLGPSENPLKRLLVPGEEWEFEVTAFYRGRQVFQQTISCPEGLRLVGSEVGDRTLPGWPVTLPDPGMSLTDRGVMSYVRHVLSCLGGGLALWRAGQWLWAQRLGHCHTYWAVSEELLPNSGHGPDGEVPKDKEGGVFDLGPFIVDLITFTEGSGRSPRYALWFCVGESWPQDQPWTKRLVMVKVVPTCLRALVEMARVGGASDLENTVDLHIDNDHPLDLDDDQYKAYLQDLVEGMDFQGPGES
`TTAGGTTTCTTACTGCTTTAGTGCTAG`: “fitted relative affinity” 1.39 z-score.
`GATGGTTTCGGGACTGGGGACGTGCTA`: “fitted relative affinity” 4.33 z-score.
`CTAGGTATCCTTATCCTTTAGTGCTAG`: “fitted relative affinity” 4.98 z-score.
Under “fitted relative affinity”, `TTAGGTTTCGGGTTACGGTTAGTGCTA` is recorded as 4.94 z-score.
`GGCTTCCTCTTTCTCTGCTAGTGCTAG` — result for “fitted relative affinity”: 1.5 z-score.
For `GACGGTTTCGGGAATCGGGACGTGCTA`, “fitted relative affinity” read 3.67 z-score.
Under “fitted relative affinity”, `CTCATTTTCATTTTGTGTCTGTGCTAG` is recorded as 3.05 z-score.
Under “fitted relative affinity”, `TCCTGTGTCTTAAATAGGGCAGTGCTA` is recorded as 0.139 z-score.

Block 3
Target: UBE2D4 UBC core domain (UniProt Q9Y2X8)
Method: yeast two-hybrid
Matrix: yeast
Notes: mostly zero background
Relative to: not given
Reading: higher = stronger interaction
B1: TRIM4 RING domain (UniProt Q9C037); chain EAEDIQEELTCPICLDYFQDPVSIECGHNFCRGCLHRNWAPGGGPFPCPECRHPSAPAALRP
B2: RNF111 RING domain (UniProt Q6ZNA4); chain EGTEEDTEEKCTICLSILEEGEDVRRLPCMHLFHQVCVDQWLITNKKCPICRVDIEAQLPSE
B3: TRIML1 RING domain (UniProt Q8N9V2); chain LMENLREELTCFICLDYFSSPVTTECGHSFCLVCLLRSWEEHNTPLSCPECWRTLEGPHFQS
B4: TRIM24 RING domain (UniProt O15164); chain EAARLNLLDTCAVCHQNIQSRAPKLLPCLHSFCQRCLPAPQRYLMLPAPMLGSAETPPPVPAPGSPVSGSSPFATQVGVIRCPVCSQECAERHII
B5: TRIM13 RING domain (UniProt O60858); chain MELLEEDLTCPICCSLFDDPRVLPCSHNFCKKCLEGILEGSVRNSLWRPAPFKCPTCRKETSATGINS
Residues (chain): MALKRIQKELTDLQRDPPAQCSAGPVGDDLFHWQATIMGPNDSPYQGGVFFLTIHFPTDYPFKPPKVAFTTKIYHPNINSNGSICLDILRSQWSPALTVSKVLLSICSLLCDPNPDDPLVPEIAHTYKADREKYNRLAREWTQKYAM
For `B1 (TRIM4 RING domain)`, “lacZ reporter activity” read 0.
`ASLPTSEEDLCPICYAHPISAVFQPCGHKSCKACINQHLMNNKDCFFCKTTIVSVEDWE (RNF123 RING domain (UniProt Q5XPI4))`: “lacZ reporter activity” 0.
Under “lacZ reporter activity”, `B2 (RNF111 RING domain)` is recorded as 15100.
`MPIRALCTICSDFFDHSRDVAAIHCGHTFHLQCLIQWFETAPSRTCPQCRIQVGKRTIIN (TRAIP RING domain (UniProt Q9BWF2))`: “lacZ reporter activity” 0.
For `DHGAVGQEMCCPICCSEYVKGEVATELPCHHYFHKPCVSIWLQKSGTCPVCRCMFPPPL (PJA1 RING domain (UniProt Q8NG27))`, “lacZ reporter activity” read 0.
`B3 (TRIML1 RING domain)` — result for “lacZ reporter activity”: 0.
`B4 (TRIM24 RING domain)` — result for “lacZ reporter activity”: 0.
Under “lacZ reporter activity”, `B5 (TRIM13 RING domain)` is recorded as 0.

Block 4
Sequence: B6 (IAA8)
Method: two-hybrid
Reading: higher = firmer interaction
B6: IAA8 (Arabidopsis thaliana, UniProt Q38826); chain MSYRLLSVDKDELVTSPCLKERNYLGLSDCSSVDSSTIPNVVGKSNLNFKATELRLGLPESQSPERETDFGLLSPRTPDEKLLFPLLPSKDNGSATTGHKNVVSGNKRGFADTWDEFSGVKGSVRPGGGINMMLSPKVKDVSKSIQEERSHAKGGLNNAPAAKAQVVGWPPIRSYRKNTMASSTSKNTDEVDGKPGLGVLFVKVSMDGAPYLRKVDLRTYTSYQQLSSALEKMFSCFTLGQCGLHGAQGRERMSEIKLKDLLHGSEFVLTYEDKDGDWMLVGDVPWEIFTETCQKLKIMKGSDSIGLAPGAVEKSKNKERV
For IAA33 (Arabidopsis thaliana, UniProt Q9FKM7); relative to: out of 4 tests: positive tests read 0.
It gave 1 for positive tests (ARF12 500-593 (Arabidopsis thaliana, UniProt Q9XID4); relative to: out of 4 tests).
It gave 2 for positive tests (ARF5 788-902 (Arabidopsis thaliana, UniProt P93024); relative to: out of 2 tests).
It gave 1 for positive tests (IAA30 (Arabidopsis thaliana, UniProt Q9M1R4); weak activation fusion; relative to: out of 2 tests).
ARF18 482-602 (Arabidopsis thaliana, UniProt Q9C5W9); relative to: out of 4 tests — positive tests: 0.

Excerpt of the above (block 1):
With `T48N` the binding fitness was 0.165 natural log.
`L45S` has a binding fitness of -0.126 natural log.
For `L38F`, the binding fitness was 0.0526 natural log.
`N42M` has a binding fitness of 0.176 natural log.
